Results from different studies.
Numbers after ± are the reported error.

| Compound | species | sample | route | time | setting | relative to | tissue uptake |
| --- | --- | --- | --- | --- | --- | --- | --- |
| CCNc1cc2[o+]c3cc(NCC)c(C)cc3c(-c3ccccc3C(=O)OCCOCC[18F])c2cc1C | rat | gut |  | 120 min |  |  | 1.07 ± 0.28 %ID/g |
| CN(C)c1ccc(C(=O)NCCCCN2CCN(c3ccccc3O[11CH3])CC2)cc1 | male Sprague Dawley rat | kidney | iv | 5 min |  | untreated | 2.69 ± 0.33 %ID/g |
| N=C(N)NCc1ccc(C(=O)NCCCC[C@H](NC(=O)CCCCCCC(=O)NCCCC[C@H](NC(=O)N[C@@H](CCC(=O)O)C(=O)O)C(=O)O)C(=O)O)cc1[211At] | SCID mouse, PC-3 xenografts | muscle |  | 21 h |  |  | 0.22 ± 0.06 %ID/g |
| O=C(O)CC[C@H](NC(=O)O[C@@H](CCCCNC(=O)c1ccc([18F])cc1)C(=O)O)C(=O)O | mouse, PC-3 PIP/flu xenografts | liver |  | 180 min |  |  | 4.62 ± 3.8 %ID/g |
| COc1ccc(C)cc1NC(=O)OC1CC2CCCC(C1)N2Cc1ccc(CC[18F])cc1 (stereo not drawn) | BALB/c mice, EMT6 tumour | kidney |  | 1 h |  |  | 10.4 ± 1.29 %ID/g |
| N=C(N)NCc1ccc(C(=O)NCCCC[C@H](NC(=O)N[C@@H](CCC(=O)O)C(=O)O)C(=O)O)cc1[211At] | SCID mouse, PC-3 xenografts | bone |  | 2 h |  |  | 0.5 ± 0.05 %ID/g |
| C=Cc1cc(O)cc2nc(-c3ccc(O)c([76Br])c3)oc12 | female C57BL/6 mouse | muscle |  | 3 h | high dose |  | 0.05 ± 0.01 %ID/g |
| N=C(N)NCc1ccc(C(=O)NCCCC[C@H](NC(=O)N[C@@H](CCC(=O)O)C(=O)O)C(=O)O)cc1[131I] | SCID mouse, PC-3 xenografts | spleen |  | 1 h |  |  | 21.1 ± 4.2 %ID/g |
| CN[C@](C)(C[18F])C(=O)O | SCID mouse MDA-MB-468 xenograft | brain |  | 15 min | post injection |  | 0.4 ± 0.1 %ID/g |
